Measurements gathered from unrelated publications.
Each line is one published result; not all experiments were run side by side. Numbers after ± are the reported error. Non-standard residues stand in square brackets, D forms with d. No end group written: not given here. The star is where a group is joined.
Kelch domain-containing protein 2: Kelch domain-containing protein 2 (UniProt Q9Y2U9)
PIM1: Serine/threonine-protein kinase pim-1 (PIM1, Homo sapiens, UniProt P11309)
OPRM1: Mu-type opioid receptor (OPRM1, Homo sapiens, UniProt P35372)
ESR1: Estrogen receptor (ESR1, Homo sapiens, UniProt P03372)
CNR2: Cannabinoid receptor 2 (CNR2, Homo sapiens, UniProt P34972)

| Substance | target | assay | system | setting | scale | endpoint | value |
| --- | --- | --- | --- | --- | --- | --- | --- |
| SSAWSHPQFEKGGGSGGG | Kelch domain-containing protein 2 | native mass spectrometry | peptide, 200 mM ammonium acetate | 20 µM Kelch domain-containing protein 2, pH 7 | relative to: total Kelch domain-containing protein 2 signal | fraction of protein bound | 0.4% |
| RYRHPTPMYY | PIM1 | substrate, coupled enzyme | peptide | pH 7.4, room temperature, together with: 1 mM ATP, 20 mM MgCl2 |  | kcat/Km | 14000 M⁻¹ s⁻¹ |
| C[C@H](CCC(=O)NCC(=O)O)[C@H]1CC[C@H]2[C@@H]3CC[C@@H]4C[C@H](O)CC[C@]4(C)[C@H]3CC[C@]12C | Ephrin type-A receptor 2 (Mus musculus, UniProt Q03145) | ELISA, ephrin-A1-Fc displacement |  |  |  | Schild slope | 1.35 |
| C[C@](O)(Cn1ccc2cc(F)ccc21)C(=O)Nc1ccc(C#N)c(C(F)(F)F)c1 | Glucocorticoid receptor (NR3C1, Homo sapiens, UniProt P04150) | transactivation, antagonist | HEK293 | together with: dexamethasone |  | IC50? | ~10 µM |
| COc1cc2c(cc1O)[C@@H]1Cc3ccc(O)c(OC)c3CN1CC2 | Acetylcholinesterase (ache, Electrophorus electricus, UniProt O42275) | enzyme activity, inhibitor, Ellman |  | up to 0.1 µg/mL |  | IC50 | inactive |
| PIL[pS]EGASR (phospho-Ser4; pS = N[C@@H](COP(=O)(O)O)C(=O)O) | CTD nuclear envelope phosphatase 1 (CTDNEP1, Homo sapiens, UniProt O95476) | substrate, MESG-coupled phosphate release |  | 25 °C |  | kcat | 0.17 ± 0.01 s⁻¹ |
| GGNWTT | UDP-glucose:protein N-beta-glucosyltransferase (Actinobacillus pleuropneumoniae serotype 5b, UniProt A3N2T3, D215R/Q469A) | substrate | peptide | 15 min, pH 8.0, 37 °C, D215R mutant, together with: UDP-Glc 100 mM |  | apparent kcat | 0.27 ± 0.02 s⁻¹ |
| Nc1ncnc2c1ncn2[C@@H]1O[C@H](COP(=O)(O)OP(=O)(O)O)[C@@H](O)[C@H]1O | P2Y purinoceptor 1 (Meleagris gallopavo, UniProt P49652, F108R) | calcium mobilisation, agonist | 1321N1 transfected |  | relative to: FGD/RGD mutant over wild type | potency shift | > 30 fold |
| COc1c(O[C@@H]2O[C@H](C(=O)O)[C@@H](O)[C@H](O)[C@H]2O)cc(O)c2c(=O)cc(-c3ccccc3)oc12 | beta-glucuronidase, rat | substrate | duodenal and jejunal perfusate |  | relative to: perfusate over microbial extract | Km ratio | > 2 fold |
| CC(C)[C@@H](CN1CCN(c2cccc(O)c2)[C@@H](C)C1)NC(=O)c1ccc(Oc2cccc(O)c2)cc1 | OPRM1 | antagonist | CHO | together with: DAMGO |  | Ke | 69 ± 14 nM |
| O=C(Nc1cccnn1)N1CCC(=Cc2cccc(Oc3ccc(C(F)(F)F)cn3)c2)CC1 | Fatty-acid amide hydrolase 1 (Faah, Rattus norvegicus, UniProt P97612) | ex vivo radioactivity | rat brain | intraperitoneal, 0.05 or 0.5 mg/kg, 1 h before tracer, [11C] tracer, 40 min sacrifice | higher = stronger blocking | uptake reduction | 67 to 85% |
| LPNWFNLSSNLM | HIV-1 neutralising antibody 4E10 | phage binding, M13 phage ELISA | peptide | concentration not given | lower = stronger binding | binding titer | 5.1e+07 M13/mL |
| Nc1nnc(S)s1 | Peptide deformylase (def, Escherichia coli, UniProt P0A6K3) | activator, aminopeptidase-coupled | 50 mM potassium phosphate | 500 µM, more than 2 days preincubation, pH 7.0 |  | initial rate | 17.5 mOD/min |
| CC(C)[C@@H](CN1CCN(c2cccc(O)c2)[C@@H](C)C1)NC(=O)c1ccc(Oc2cccc(F)c2)cc1 | OPRM1 | antagonist | CHO | together with: DAMGO |  | Ke | 30 ± 9 nM |
| anthraquinone-neomycin | poly(dA)·2poly(dT) triplex | ITC |  |  | relative to: triplex minus poly(dA)·poly(dT) duplex | enthalpy difference | -7.8 kcal/mol |
| CCc1c2c(nc3ccc(O)cc13)-c1cc3c(c(=O)n1C2)COC(=O)[C@]3(O)CC | UDP-glucuronosyltransferase 1A9 (UGT1A9, Homo sapiens, UniProt O60656) | substrate |  | pH 7.4, 37 °C |  | Vmax | 73.1 pmol/mg/min |
| cyclo(GLWFGPRL) (cyclic) | diapause hormone receptor (Helicoverpa zea, UniProt S5LVZ5) | receptor activation, antagonist, aequorin luminescence | CHO-K1 expressing receptor | 1 µM, 30 min preincubation, together with: model ligand at 1 µM | relative to: model ligand alone | antagonist activity | 18.5% |
| c1cnc2cc3c(cc2n1)[C@@H]1CNC[C@H]3C1 | Chrnb2/Chrna6 (Rattus norvegicus, UniProt P12390+P43143, L273S/L280S/L348M/R364A/R365A/R367A) | ion current, agonist |  | concentration not given, rat receptor, unit not given | relative to: acetylcholine maximum current | efficacy | 0.33 ± 0.02 |
| Ac-QDEVD-pNA (N-acetyl, C-pNA; pNA = O=[N+]([O-])c1ccc(N*)cc1) | Caspase-7 (CASP7, Homo sapiens, UniProt P55210) | substrate hydrolysis, substrate, colorimetric |  | pH 7.5 |  | kcat/Km | 20000 ± 1670 M⁻¹ s⁻¹ |

| Substance | target | assay | system | setting | scale | endpoint | value |
| --- | --- | --- | --- | --- | --- | --- | --- |
| O=c1[nH]c(/C=C/c2cccc(O)c2O)c([N+](=O)[O-])c(=O)[nH]1 | Riboflavin synthase (ribC, Escherichia coli, UniProt P0AFU8) | enzyme activity, substrate | Escherichia coli, recombinant riboflavin synthase | pH 7.0 |  | Ks | 2.6 ± 0.3 µM |
| KSQLIDKIAAGA | Kelch domain-containing protein 2 | native mass spectrometry | peptide, 200 mM ammonium acetate | 20 µM Kelch domain-containing protein 2, pH 7 | relative to: total Kelch domain-containing protein 2 signal | fraction of protein bound | 0.5% |
| O=P(O)(O)OC[C@@H](O)[C@@H](O)CO | Orotidine 5'-phosphate decarboxylase (Saccharomyces cerevisiae S288c, UniProt P03962, T100A) | dianion-activated decarboxylation |  |  | relative to: wild type | activation energy change | 2.8 kcal/mol |
| O=Cc1ccc(Cl)cc1Cl | Delta-aminolevulinic acid dehydratase (Homo sapiens, UniProt P13716, C162A/K59N) | enzyme activity |  | 100 mM |  | remaining activity | 50.7 ± 0.3% |
| CC(C)[C@@H](CN1CCN(c2cccc(O)c2)[C@@H](C)C1)NC(=O)c1ccc(Oc2ccccc2O)cc1 | OPRM1 | antagonist | CHO | together with: DAMGO |  | Ke | 125 ± 10 nM |
| Oc1cc(-c2ccc(-c3ccc(F)c(O)c3)[se]2)ccc1F | ESR1 | antagonist | HEK293T | highest tested concentration, together with: estradiol 10 nM | relative to: estradiol alone | efficacy | 68 ± 2% |
| NC(=O)CN1CCC[C@H](NC(=O)c2nn(Cc3ccc(F)cc3)c3ccccc23)C1 | CNR2 | calcium mobilization, agonist | CHO-K1 expressing Gαq16 |  | relative to: CP55,940 maximum | Emax | 61 ± 6% |
| Cc1ccccc1NC(=O)Oc1ccc2c(c1)[C@]1(C)CCN(C)[C@@H]1N2C | Liver carboxylesterase 1 (CES1, Homo sapiens, UniProt P23141) | irreversible inhibitor |  | 5× IC50 or 200 µM, 1 h, preincubation then inhibitor removal, together with: o-nitrophenyl acetate substrate |  | remaining activity | 43.4% |
| C[C@]12C[C@H](c3ccc(OCCN=[N+]=[N-])cc3)[C@@H]3c4ccc(O)cc4CC[C@H]3[C@@H]1CC[C@@H]2O | Estrogen receptor, ligand-binding domain (ESR1, Homo sapiens, UniProt P03372) | radioligand competition |  | concentration not given, overnight, room temperature, ligand-binding domain, together with: [3H]estradiol | relative to: estradiol | relative binding affinity | 26 to 39% |
| Ac-RYRHPTGMYY-NH2 (N-acetyl, C-amide) | PIM1 | substrate, coupled enzyme | peptide | pH 7.4, room temperature, together with: 1 mM ATP, 20 mM MgCl2 |  | kcat | 14 ± 1 s⁻¹ |
| C=C1C[C@H](C)C[C@@H]2CC=C[C@@H](C/C=C\C(=O)O[C@H]([C@@H](O)/C=C/[C@@H]3CC(C)=CCO3)C[C@@H]3O[C@H]3[C@@H](O)C1)O2 | microtubules (bovine, glutaraldehyde-fixed) | competitor |  | 25 µM, together with: [3H]peloruside A 2.5 µM |  | [3H]peloruside A bound per tubulin | 0.088 ± 0.0023 |
| WSHPQFEKGGGSGGGSGG | Kelch domain-containing protein 2 | native mass spectrometry | peptide, 200 mM ammonium acetate | 20 µM Kelch domain-containing protein 2, pH 7 | relative to: total Kelch domain-containing protein 2 signal | fraction of protein bound | 0.9% |
| O=c1[nH]c(=O)n([C@@H]2O[C@H](COP(=O)(O)O)[C@@H](O)[C@H]2O)cc1F | Orotidine 5'-phosphate decarboxylase (Saccharomyces cerevisiae S288c, UniProt P03962, A160S/C155S/N267D/S2H) | C6 deuterium exchange |  | basic enzyme form, together with: saturating enzyme-bound substrate | relative to: compound over UMP | rate constant ratio | 3400 fold |
| COc1cccc2c1cc([N+](=O)[O-])c1c(C(=O)O)cc3c(c12)OCO3 | Phospholipase A2-beta (PLA2-BETA, Arabidopsis thaliana, UniProt Q8GZB4) | enzyme activity, inhibitor, radiolabelled PC hydrolysis, measured: released fatty acid |  | 20 µM, 40 min preincubation, pH 8.0, 40 °C, together with: 1-palmitoyl-2-[14C]palmitoyl-PC | relative to: untreated | remaining activity | 38 ± 1.8% |
| CC(C)C[C@H](NC(=O)[C@H](CO)NC(=O)[C@H](CC(C)C)NC(=O)[C@@H]1CCCN1C(=O)CNC(=O)[C@H](Cc1ccccc1)NC(=O)[C@H](Cc1ccccc1)NC(=O)Cc1ccc2ccccc2c1)C(=O)N[C@@H](CCCNC(=N)N)C(=O)N[C@@H](CO)C(=O)N[C@@H](CCCCN)C(=O)O | Matrix metalloproteinase-9 (MMP9, Homo sapiens, UniProt P14780) | substrate, HPLC |  | 500 µM, 72 h, pH 7.5, 37 °C |  | hydrolysis product | 70% |
| NC(=O)CN1CCC[C@@H](CNC(=O)c2nn(Cc3ccc(F)cc3)c3ccccc23)C1 | CNR2 | calcium mobilization, agonist | CHO-K1 expressing Gαq16 |  | relative to: CP55,940 maximum | Emax | 41 ± 3% |
| O=C1C(O)=C([C@H]2CC[C@H](c3ccc(Cl)cc3)CC2)C(=O)c2ccccc21 | CRT (Plasmodium falciparum, UniProt W7FI62) | scintillation proximity | nanodiscs | 10 µM, together with: [3H]-chloroquine and [3H]-piperaquine |  | inhibition of binding | no inhibition |
| Cc1cc(-c2c[se]cc2-c2ccc(O)c(C)c2)ccc1O | ESR1 | antagonist | HEK293T | highest tested concentration, together with: estradiol 10 nM | relative to: estradiol alone | efficacy | 46 ± 9% |
| CC(C)(NC(=O)c1nn(CCCCC#N)c2ccccc12)c1cccc(C(N)=O)c1 | CNR2 | calcium mobilization, agonist | CHO-K1 expressing Gαq16 |  | relative to: CP55,940 maximum | Emax | 10 ± 3% |

Some of these lines once more:
| Substance | target | assay | system | setting | scale | endpoint | value |
| --- | --- | --- | --- | --- | --- | --- | --- |
| CC(C)[C@@H](CN1CCN(c2cccc(O)c2)[C@@H](C)C1)NC(=O)c1ccc(Oc2cccc(O)c2)cc1 | OPRM1 | antagonist | CHO | together with: DAMGO |  | Ke | 69 ± 14 nM |
| O=C(Nc1cccnn1)N1CCC(=Cc2cccc(Oc3ccc(C(F)(F)F)cn3)c2)CC1 | Fatty-acid amide hydrolase 1 (Faah, Rattus norvegicus, UniProt P97612) | ex vivo radioactivity | rat brain | intraperitoneal, 0.05 or 0.5 mg/kg, 1 h before tracer, [11C] tracer, 40 min sacrifice | higher = stronger blocking | uptake reduction | 67 to 85% |
| LPNWFNLSSNLM | HIV-1 neutralising antibody 4E10 | phage binding, M13 phage ELISA | peptide | concentration not given | lower = stronger binding | binding titer | 5.1e+07 M13/mL |
| Nc1nnc(S)s1 | Peptide deformylase (def, Escherichia coli, UniProt P0A6K3) | activator, aminopeptidase-coupled | 50 mM potassium phosphate | 500 µM, more than 2 days preincubation, pH 7.0 |  | initial rate | 17.5 mOD/min |
| CC(C)[C@@H](CN1CCN(c2cccc(O)c2)[C@@H](C)C1)NC(=O)c1ccc(Oc2cccc(F)c2)cc1 | OPRM1 | antagonist | CHO | together with: DAMGO |  | Ke | 30 ± 9 nM |
| anthraquinone-neomycin | poly(dA)·2poly(dT) triplex | ITC |  |  | relative to: triplex minus poly(dA)·poly(dT) duplex | enthalpy difference | -7.8 kcal/mol |
